Results of several laboratories.
A part holds a random share of what one study measured. Positions count from the first letter of the parent shown.

Set 1 — method: RNA Bind-n-Seq; molecule type: RNA; matrix: in vitro; tested at: 365 nM; baseline: no-protein control; direction: higher = stronger binding
Target: RNA binding protein fox-1 homolog 2, RRM domain, GST-SBP tag (RBFOX2, Homo sapiens, UniProt O43251-10, residues 100-194)
Notes: natural RNA segment, single round, ends assumed
All sequences stand within: GGGAGUUCUACAGUCCGACGAUC … UGGAAUUCUCGGGUGCCAA
Residues (chain): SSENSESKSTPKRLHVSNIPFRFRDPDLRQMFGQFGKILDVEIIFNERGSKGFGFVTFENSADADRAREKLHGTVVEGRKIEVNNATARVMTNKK
Strand | RBNS enrichment (R)
AGCAGCGAGCAUCCAAGGGUUGGCAGGGACAGUGUUACAGGCUCUUUAUUUUGCUGCUUUGAUUUUGCUUCUGUCUGCCCCUCACAUGUGCAGUGGCAGGCGUGUUUGAG | 1.87
AAGCUGUGCUGUGUAUUGGUGGUUUUAGAAAGACUCAGCUCAUGAGCUGUGUUAAACCUUAACAUGAGACUCAUAUAUUCAGGGUUACAUGAGUUACUUUUAUAAAUCGA | 0.264
CCUUAAGCCUGUGGUAAAAGGGCUUCAGGGAAGGUAAGUGGGCCACCUGCUGGAAGCUGCCAGCUGCCCGGCUGGCAAUGGUGUGAGUGUCUUGGCCCUGUCCCUGCCCU | 0.336
CAGUACUACAAAAUAAAGGGGAAAGAAUUCUUGUAGAUAGAAUCCCAAGAGAGCUCAUUUAAUUGUGCUGUGACAAUGAAGAUUACUGGAAUGAAUUUUUGUCUUUUGUA | 1.09
AGCAUAAUCAAUAACUCGCAUAUGAAGUAAAAAGGAAUACUGUGAAAGGGGAGUACUCUUGUACAGCCAGUUCUUUUAUGCAAAAAUCUAUGCAUUUUUACAAUCUUAUA | 0.609
UAGUUCCCUCAACACAAUUGCUAAUGCAGAAUAGUGUAAAAUGCGCUUCAAGAAUGUUGAUGAUGAUGAUAUAGAAUUGUGGCUUUAGUAGCACAGAGGAUGCCCCAACA | 1.98
CCUCAGCACUGAGGAUUCUUGCCCCCUUGUGGUGCCCGCUGCCCCCAACCUUCAGGCUGCCAGAUGCUCCCCUGACAACACCAGGCUACAGGAGCCAGACGCCAGGGCCU | 0.431
GUUCCCCUCUUUACCUUCACCAUUCGCUGCUUCUGCCAAGUCUGUGAAGCCGUCCUUUGUAGGAUGUUUCUUGCCACUUACGCUGUACUGUAGUUGCUUAUUCUUUCUGC | 0.467

Set 2 — method: protein-binding microarray; molecule type: double-stranded DNA, one strand shown; matrix: in vitro; tested at: 2540 nM top; notes: 60-bp whole probe; added: salmon DNA 0.4 mg/ml; baseline: random background probes; direction: higher = stronger binding; all sequences stand within: GCCTAGCAC … GTCTTGATTCGCTTGACGCTGCTG
Target: Interferon regulatory factor 3, full length, phosphomimetic (IRF3, Homo sapiens, UniProt Q14653, residues 1-427, S386D/S396D/S398D/S402D/T404D/S405D)
Target sequence (chain): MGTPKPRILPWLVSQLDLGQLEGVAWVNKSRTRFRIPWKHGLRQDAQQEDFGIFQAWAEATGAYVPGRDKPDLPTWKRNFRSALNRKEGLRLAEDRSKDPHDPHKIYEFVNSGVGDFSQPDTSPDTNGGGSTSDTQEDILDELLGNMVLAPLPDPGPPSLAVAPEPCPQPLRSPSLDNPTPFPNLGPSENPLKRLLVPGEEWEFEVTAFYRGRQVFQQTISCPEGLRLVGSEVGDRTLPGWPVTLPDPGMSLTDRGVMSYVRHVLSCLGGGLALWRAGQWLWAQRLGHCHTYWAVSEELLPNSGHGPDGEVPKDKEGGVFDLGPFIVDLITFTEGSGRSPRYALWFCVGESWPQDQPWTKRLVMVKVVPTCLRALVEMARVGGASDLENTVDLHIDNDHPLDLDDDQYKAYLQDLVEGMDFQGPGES
Strand | fitted relative affinity [z-score]
GCCACTTTCCATTTCTGTTTGTGCTAG | 7.29
TTAGGTTTCGACTATCAGTTAGTGCTA | 2.6
TCATGTTTCCATCTCTCACTGTGCTAG | 6.98
GACGATTTCAGACTGGTGACGTGCTAG | 0.872
TTAGGTATCGACTTCCGGTTAGTGCTA | 0.793
GACTGTATCGGTATCGGGACGTGCTAG | 4.48
GACGGTATCGGGTTTTGGGACGTGCTA | 1.89
TTATATATCAGTTTCGATTAGTGCTAG | 4.67
CACGGACTGGACTATCGGGACGTGCTA | -0.444
GGTCCCACCTCTTGGTGGGAGTGCTAG | 1.35
GACGGCCTGGGTATCGGGACGTGCTAG | -0.633
TCATAGATGCCTTTCTCACTGTGCTAG | 3.06
CTCTATACCCATGTAGAGAGGTGCTAG | 0.458
GACGATATCCGGTTTCGAGACGTGCTA | 2.81
TTAGATTTCAGTATCGGTTAGTGCTAG | 3.6
GACGGACTGGTTTTCCTGACGTGCTAG | 0.278
GACGATATGGGGACTGGAGACGTGCTA | -0.645
GATGATATCAGTTTCGAGACGTGCTAG | 3.67
TTAGGTCGCCTTTTCCTTTAGTGCTAG | 2.99

Set 3 — target: CCND3, cyclin fold, Cln2 fusion (human); method: yeast growth competition, sequencing; matrix: yeast; notes: strong parent motif; baseline: not given; direction: higher = stronger binding
Parent: INSM1 docking peptide (human); PKAIRKLHFEDEV
Change | normalised enrichment score
PKATRKLHFEDEV [I4T] | 0.371
PKAQRKLHFEDEV [I4Q] | 1.03
PKAIRLLHFEDEV [K6L] | 0.12
PKAIRKLLFEDEV [H8L] | 1.28
PKAIRKLHFEDTV [E12T] | 0.767
PKCIRKLHFEDEV [A3C] | 0.896
PKAIRKLHYEDEV [F9Y] | 0.108
PKAIRKLHFMDEV [E10M] | 0.733
PKAIRVLHFEDEV [K6V] | 1.04
PKAIRKLHFEDYV [E12Y] | 0.724
PKAIMKLHFEDEV [R5M] | 0.94
PKAIRKLQFEDEV [H8Q] | 1.25
PKAIRKLHFELEV [D11L] | 0.193
PKIIRKLHFEDEV [A3I] | -0.154
PYAIRKLHFEDEV [K2Y] | 0.664
PKAIRKLHFFDEV [E10F] | 0.619
PKAIRKLHWEDEV [F9W] | 0.87
PKAIRKLGFEDEV [H8G] | 0.301

Set 4 — method: RNA Bind-n-Seq; molecule type: RNA; matrix: in vitro; tested at: not given; baseline: input RNA pool; direction: higher = stronger binding
Target: RING finger protein unkempt homolog, zinc fingers 1-6, GST-SBP tag (UNK, Homo sapiens, UniProt Q9C0B0, residues 30-357)
Sequence of UniProt Q9C0B0 (30-357, looked up): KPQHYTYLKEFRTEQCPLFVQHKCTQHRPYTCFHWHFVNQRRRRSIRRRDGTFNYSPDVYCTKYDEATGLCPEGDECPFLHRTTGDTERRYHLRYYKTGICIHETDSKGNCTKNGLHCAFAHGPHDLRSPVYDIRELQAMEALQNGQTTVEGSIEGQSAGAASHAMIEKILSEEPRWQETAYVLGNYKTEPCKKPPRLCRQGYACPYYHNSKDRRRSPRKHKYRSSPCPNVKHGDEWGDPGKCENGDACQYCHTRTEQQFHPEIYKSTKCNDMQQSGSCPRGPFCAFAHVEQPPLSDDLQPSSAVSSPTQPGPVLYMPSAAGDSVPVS
Notes: RNA with constant flanks, human and mouse sites, ends assumed
All sequences stand within: GGGAGUUCUACAGUCCGACGAUC … CAACAGAGGAUUGAGCAUCA
Strand | bound/input enrichment [ratio]
AAGGGUAAUUAUUCGGAGCGGGUCGGCGCUGGUGCCCCGGUGUACCUGGCGGCUGUGCUAGAAUAUCUGACUGCUGAGAUCCUGGAAUUGGCUGGUAAUGCGGCCCGCGACAAUAAGAAG | 0.162
CUGGGAACCUCCCAGAGGUCCAGCCCAUCUCGGAGCAUCCCGGAGGAAAUCUGCAGAGGGUUAGGAGUGGGUGACAAGAGCCUGAUCUCUUCCUGUUUUGUACAUAGAUUUAUUUUUCAG | 1.5
CAGCUCUUUGGGGAUGAUGAAACUGCUUUCGGUUACAAGGGCCUGAAGAUCUUGCUGUACUAUAUUGCUGGUAGCCUGUCAACACUGUUCCGUGUUGAAUAUUCAUCUAAAGUUGAUGAG | 0.221
CAUGACAAAGCUUCAAAGGAUGCCAAAUAUGAACUAGUGAAAGCACUUGCCAAUUCCAAGACAAUUGCAGAAAUCUUUGGGAACCCAAAUUAUUUGAGGCUCAGAACUUACCUGAGUGAA | 0.238
GUUUUGACUAUUUGAAUUUUCACAUAUUGGGCUUACCCAGAGUGGAGCACACCUCCAGGGCAUGUGGCUGACACUGGGUCAAUGUCUGCAUCUGUGCUGUGUGUGUAGUGUGGUUGGCCA | 0.237
UUACAUCUCAAUGAAGCAAGGGACUAUGAAGUGUCAGAUAGUGCCCCUCAUCUUGAGGGCCUAGCAGAAUUUCAAGAGAAUGUAAGGAAGACCAACAAUUUUUCAGCUUUUCUUGCCAAU | 0.123
UGCUUUUCUUUCUAAGCAGAGUAUGGUUGUCAUCUUUCUGGACAGAUGAAUUGAUAGGAGAUAGAAGGUCGAAAGAUGGCUGUUAUACCAGCCUAAGUUCAGAACACCAGCAUAUCAAGG | 0.298
GAUUAUUUCUGAAGGUGUUUUUUUCUUUAUUUCUUUUUCUUUUUUUUUUUUUUUCUUUUUCUUUUUUUUUUGCACAUGACAGUGUUUGUAUUGAGGACCUUCCAAGGAAGAGGGAUGCUG | 6.61

For quick reference, copied from above (set 3):
Change | normalised enrichment score
PKAIRKLQFEDEV [H8Q] | 1.25
PKAIRKLHFELEV [D11L] | 0.193
PKIIRKLHFEDEV [A3I] | -0.154
PYAIRKLHFEDEV [K2Y] | 0.664
PKAIRKLHFFDEV [E10F] | 0.619
PKAIRKLHWEDEV [F9W] | 0.87
PKAIRKLGFEDEV [H8G] | 0.301
